Assay results gathered from unrelated publications.
Numbered parts are unrelated; each lists some results of a single study.

Series 1
Target: Interferon regulatory factor 7, full length, phosphomimetic (IRF7, Homo sapiens, UniProt Q92985, residues 1-503, S101K/S471D/S472D/S475D/S476D/S477D/S483D/S484D/S487D)
UniProt Q92985, sequence (whole entry, unmodified, looked up): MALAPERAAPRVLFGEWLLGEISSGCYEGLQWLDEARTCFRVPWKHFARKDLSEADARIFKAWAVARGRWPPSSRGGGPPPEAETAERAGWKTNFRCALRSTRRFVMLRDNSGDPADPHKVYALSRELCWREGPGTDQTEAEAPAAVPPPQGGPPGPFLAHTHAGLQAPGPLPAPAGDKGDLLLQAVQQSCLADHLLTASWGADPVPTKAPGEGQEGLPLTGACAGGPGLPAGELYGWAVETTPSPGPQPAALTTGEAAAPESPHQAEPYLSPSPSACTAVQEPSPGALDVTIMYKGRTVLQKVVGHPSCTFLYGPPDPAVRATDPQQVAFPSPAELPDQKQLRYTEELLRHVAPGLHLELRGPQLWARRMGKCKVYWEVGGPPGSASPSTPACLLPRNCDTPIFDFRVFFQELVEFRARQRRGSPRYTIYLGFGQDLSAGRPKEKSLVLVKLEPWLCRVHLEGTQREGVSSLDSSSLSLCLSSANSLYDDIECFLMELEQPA
Technique: protein-binding microarray
Form: double-stranded DNA, one strand shown
Medium: in vitro
Concentration: 250 nM
Notes: 60-bp whole probe
With: salmon DNA 0.4 mg/ml
Relative to: random background probes
Reading: higher = stronger binding
Oligonucleotide | log fluorescence [z-score]
GCCTAGCACTTAGGTTTTGGTCTCGGTTAGTGCTAGGTCTTGATTCGCTTGACGCTGCTG | 2.5
GCCTAGCACTCATACATGTGTTTAAAACTGTGCTAGGTCTTGATTCGCTTGACGCTGCTG | 0.333
GCCTAGCACCCTAATTCTCTTTTCACTTTGTGCTAGGTCTTGATTCGCTTGACGCTGCTG | 2.34
GCCTAGCACCAACCTATAGGTTCAACGACGTGCTAGGTCTTGATTCGCTTGACGCTGCTG | 0.188

Series 2
Target: Prothrombin, mature alpha-thrombin (F2, Homo sapiens, UniProt P00734)
Technique: aptamer microarray, sandwich
Form: DNA with 2'F-ANA
Medium: in vitro
Concentration: 200 nM
Notes: whole 15-mer aptamer, many near background
With: Cy3 exosite-II aptamer, 400 nM
Reading: higher = stronger binding
Oligonucleotide | mean fluorescence intensity
GGTTGGTGTGGTTGG (2'F-ANA at 1 2 3 4 5 6 7 8 11 12 13) | 81 a.u.
GGTTGGTGTGGTTGG (2'F-ANA at 1 3 4 6 7 9 12 14 15) | 71.7 a.u.
GGTTGGTGTGGTTGG (2'F-ANA at 1 2 3 4 6 10 11 14) | 50.1 a.u.

Series 3
Target: Histone acetyltransferase KAT6A, both winged helices, GST fusion (KAT6A, Homo sapiens, UniProt Q92794, residues 1-181)
Technique: protein binding microarray
Form: double-stranded DNA, one strand shown
Medium: in vitro
Concentration: not given
Notes: 8-mer, flanks averaged, mean of 2 arrays, mostly near background
Relative to: not given
Reading: higher = stronger binding
Construct (chain): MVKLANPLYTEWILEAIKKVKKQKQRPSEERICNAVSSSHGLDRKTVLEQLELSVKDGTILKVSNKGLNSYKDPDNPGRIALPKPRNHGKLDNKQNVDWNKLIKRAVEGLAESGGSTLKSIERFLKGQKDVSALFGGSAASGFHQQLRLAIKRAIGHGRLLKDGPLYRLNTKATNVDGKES
Oligonucleotide | E-score
TAAACGGA | 0.248
CTGGACGC | 0.184
TCATTTCA | -0.0964
CTCGGTGC | -0.0213

Mixed results
Molecule | target | assay | system | setting | how to read | endpoint | result
PhoQ, residues 284 288 289 292 302 303 SLGVVW | PhoP, residues 12 14 15 18 19 NMSFL (Escherichia coli, UniProt P23836) | Sort-seq, item: YFP reporter | E. coli | PhoQ-PhoP variant library, with: 10 µM Mg2+ | relative to: high Mg2+ state, higher = stronger signaling | fold induction | 6.99

A few entries again (series 3):
Oligonucleotide | E-score
CTGGACGC | 0.184
